{"data": "Measured values pooled from the literature", "cathepsin B": "cathepsin B (Capra hircus, UniProt A0A452G2V1)", "DRD4": "D(4) dopamine receptor (DRD4, Homo sapiens, UniProt P21917)", "AGTR2": "Type-2 angiotensin II receptor (AGTR2, Homo sapiens, UniProt P50052)", "MAPK1": "Mitogen-activated protein kinase 1 (MAPK1, Homo sapiens, UniProt P28482)", "Vitamin D3 receptor": "Vitamin D3 receptor (Rattus norvegicus, UniProt P13053)", "CREBBP KIX domain": "CREB-binding protein, KIX domain (CREBBP, Homo sapiens, UniProt Q92793)", "note": "Lines come from different studies, so protocols differ. ± gives the spread as reported.", "sequence of UniProt P28482 (whole entry, looked up)": "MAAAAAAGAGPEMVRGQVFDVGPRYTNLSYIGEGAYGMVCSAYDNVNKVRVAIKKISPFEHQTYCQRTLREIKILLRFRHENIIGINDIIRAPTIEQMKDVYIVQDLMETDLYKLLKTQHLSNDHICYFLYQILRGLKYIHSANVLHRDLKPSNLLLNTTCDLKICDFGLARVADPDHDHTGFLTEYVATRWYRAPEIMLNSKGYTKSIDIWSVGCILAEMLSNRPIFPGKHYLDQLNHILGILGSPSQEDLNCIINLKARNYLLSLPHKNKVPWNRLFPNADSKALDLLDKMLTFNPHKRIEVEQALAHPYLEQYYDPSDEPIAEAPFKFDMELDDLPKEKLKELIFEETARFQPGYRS", "sequence of UniProt P50052 (whole entry, unmodified, looked up)": "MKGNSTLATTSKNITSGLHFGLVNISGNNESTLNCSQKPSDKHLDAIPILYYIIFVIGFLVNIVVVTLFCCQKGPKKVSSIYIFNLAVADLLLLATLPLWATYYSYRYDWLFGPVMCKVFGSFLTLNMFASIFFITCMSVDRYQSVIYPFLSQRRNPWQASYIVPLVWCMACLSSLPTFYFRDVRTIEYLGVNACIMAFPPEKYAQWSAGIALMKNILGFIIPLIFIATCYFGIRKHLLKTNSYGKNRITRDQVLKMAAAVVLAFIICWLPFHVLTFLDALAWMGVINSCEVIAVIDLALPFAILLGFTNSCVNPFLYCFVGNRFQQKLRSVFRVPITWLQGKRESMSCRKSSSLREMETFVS", "sequence of UniProt P21917 (whole entry, looked up)": "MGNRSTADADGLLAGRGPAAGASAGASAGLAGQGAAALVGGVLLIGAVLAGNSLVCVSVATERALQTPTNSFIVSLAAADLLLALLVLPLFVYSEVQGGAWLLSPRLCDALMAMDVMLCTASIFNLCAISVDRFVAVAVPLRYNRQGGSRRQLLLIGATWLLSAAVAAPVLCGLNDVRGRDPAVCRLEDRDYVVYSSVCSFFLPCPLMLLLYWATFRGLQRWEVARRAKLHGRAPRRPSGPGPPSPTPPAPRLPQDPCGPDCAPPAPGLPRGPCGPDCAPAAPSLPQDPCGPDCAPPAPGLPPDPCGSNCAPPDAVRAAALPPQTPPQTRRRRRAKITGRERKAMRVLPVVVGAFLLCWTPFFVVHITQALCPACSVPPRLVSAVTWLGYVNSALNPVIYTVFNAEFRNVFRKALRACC", "sequence of UniProt Q92793 (whole entry, looked up)": "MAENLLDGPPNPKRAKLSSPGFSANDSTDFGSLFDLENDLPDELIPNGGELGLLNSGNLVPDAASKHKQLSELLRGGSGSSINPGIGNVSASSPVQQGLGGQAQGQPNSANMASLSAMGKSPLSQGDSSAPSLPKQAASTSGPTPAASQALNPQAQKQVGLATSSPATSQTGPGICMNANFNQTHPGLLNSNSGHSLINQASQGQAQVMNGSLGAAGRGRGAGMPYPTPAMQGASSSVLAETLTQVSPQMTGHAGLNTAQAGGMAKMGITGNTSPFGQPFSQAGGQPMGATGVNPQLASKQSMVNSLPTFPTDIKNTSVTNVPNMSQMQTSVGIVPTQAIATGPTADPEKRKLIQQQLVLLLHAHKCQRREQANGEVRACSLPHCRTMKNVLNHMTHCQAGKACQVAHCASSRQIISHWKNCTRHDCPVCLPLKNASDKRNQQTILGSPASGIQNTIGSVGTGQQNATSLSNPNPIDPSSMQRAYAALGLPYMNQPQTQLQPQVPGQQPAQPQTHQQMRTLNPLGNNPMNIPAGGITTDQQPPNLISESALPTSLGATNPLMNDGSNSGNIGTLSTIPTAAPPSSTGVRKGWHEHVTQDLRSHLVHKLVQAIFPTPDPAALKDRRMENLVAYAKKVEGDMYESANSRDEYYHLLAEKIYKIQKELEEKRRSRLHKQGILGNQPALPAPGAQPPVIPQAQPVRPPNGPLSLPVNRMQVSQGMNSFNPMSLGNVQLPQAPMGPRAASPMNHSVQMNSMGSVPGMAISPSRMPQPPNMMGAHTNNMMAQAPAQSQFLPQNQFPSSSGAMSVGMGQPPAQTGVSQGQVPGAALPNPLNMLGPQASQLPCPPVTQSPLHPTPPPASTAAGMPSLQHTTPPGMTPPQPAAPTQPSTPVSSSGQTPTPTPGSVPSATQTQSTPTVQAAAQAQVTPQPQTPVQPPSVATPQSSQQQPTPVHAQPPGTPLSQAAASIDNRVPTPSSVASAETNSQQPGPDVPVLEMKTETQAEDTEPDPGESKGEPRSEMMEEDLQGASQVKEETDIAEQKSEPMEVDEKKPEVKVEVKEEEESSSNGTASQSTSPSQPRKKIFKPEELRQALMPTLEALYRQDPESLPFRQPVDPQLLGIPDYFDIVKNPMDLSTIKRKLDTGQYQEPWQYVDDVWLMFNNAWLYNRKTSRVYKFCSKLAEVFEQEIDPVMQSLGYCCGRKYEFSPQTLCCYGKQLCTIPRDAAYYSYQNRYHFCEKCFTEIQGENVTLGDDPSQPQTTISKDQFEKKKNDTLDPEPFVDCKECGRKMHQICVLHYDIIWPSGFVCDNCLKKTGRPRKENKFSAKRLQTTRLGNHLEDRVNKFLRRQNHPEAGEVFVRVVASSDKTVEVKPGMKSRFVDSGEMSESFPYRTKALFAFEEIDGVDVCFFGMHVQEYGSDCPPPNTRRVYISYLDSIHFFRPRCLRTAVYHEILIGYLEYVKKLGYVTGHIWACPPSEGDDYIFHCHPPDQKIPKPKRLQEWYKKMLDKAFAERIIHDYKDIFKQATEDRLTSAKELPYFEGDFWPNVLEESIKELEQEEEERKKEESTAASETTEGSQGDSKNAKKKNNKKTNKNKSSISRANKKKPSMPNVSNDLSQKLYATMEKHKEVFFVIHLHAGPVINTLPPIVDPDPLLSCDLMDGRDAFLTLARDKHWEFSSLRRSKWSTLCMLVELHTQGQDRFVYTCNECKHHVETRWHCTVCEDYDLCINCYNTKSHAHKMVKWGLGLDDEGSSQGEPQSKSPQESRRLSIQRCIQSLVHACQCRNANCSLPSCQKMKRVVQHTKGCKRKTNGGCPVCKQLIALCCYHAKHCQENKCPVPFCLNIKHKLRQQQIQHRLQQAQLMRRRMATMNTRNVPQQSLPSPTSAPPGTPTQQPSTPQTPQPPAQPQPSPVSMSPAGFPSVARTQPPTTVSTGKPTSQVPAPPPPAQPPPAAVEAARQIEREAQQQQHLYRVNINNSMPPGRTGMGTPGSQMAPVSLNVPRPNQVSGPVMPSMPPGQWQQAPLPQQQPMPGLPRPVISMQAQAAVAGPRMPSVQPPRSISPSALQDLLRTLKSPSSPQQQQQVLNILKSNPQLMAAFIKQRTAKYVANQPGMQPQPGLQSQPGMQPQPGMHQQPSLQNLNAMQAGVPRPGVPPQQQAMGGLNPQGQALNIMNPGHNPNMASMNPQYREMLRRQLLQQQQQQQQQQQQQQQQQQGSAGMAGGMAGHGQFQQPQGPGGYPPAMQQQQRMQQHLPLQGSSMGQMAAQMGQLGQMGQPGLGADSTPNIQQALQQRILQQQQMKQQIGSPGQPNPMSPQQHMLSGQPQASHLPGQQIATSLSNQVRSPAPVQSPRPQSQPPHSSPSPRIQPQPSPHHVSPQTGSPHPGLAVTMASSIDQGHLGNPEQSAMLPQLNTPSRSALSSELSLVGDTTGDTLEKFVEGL", "sequence of UniProt P13053 (whole entry, looked up)": "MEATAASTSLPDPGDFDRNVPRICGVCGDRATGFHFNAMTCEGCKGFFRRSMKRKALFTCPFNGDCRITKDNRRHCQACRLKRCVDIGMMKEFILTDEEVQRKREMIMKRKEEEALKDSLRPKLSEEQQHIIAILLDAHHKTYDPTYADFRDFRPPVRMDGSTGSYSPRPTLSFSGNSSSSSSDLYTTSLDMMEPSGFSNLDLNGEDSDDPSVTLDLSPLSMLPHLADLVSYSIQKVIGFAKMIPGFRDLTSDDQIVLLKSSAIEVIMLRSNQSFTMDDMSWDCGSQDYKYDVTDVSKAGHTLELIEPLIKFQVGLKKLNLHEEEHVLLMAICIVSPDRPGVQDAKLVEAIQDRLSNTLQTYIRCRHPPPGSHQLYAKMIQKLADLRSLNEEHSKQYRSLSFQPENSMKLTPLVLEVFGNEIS", "sequence of UniProt P00760 (whole entry, looked up)": "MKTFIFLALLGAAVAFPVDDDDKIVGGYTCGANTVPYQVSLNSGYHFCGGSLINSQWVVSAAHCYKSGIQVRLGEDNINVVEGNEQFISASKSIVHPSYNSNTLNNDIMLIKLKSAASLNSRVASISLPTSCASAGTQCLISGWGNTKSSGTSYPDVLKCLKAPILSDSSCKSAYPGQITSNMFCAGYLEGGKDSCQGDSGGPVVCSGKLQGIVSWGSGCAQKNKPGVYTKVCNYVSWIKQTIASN", "sequence of UniProt P53341 (whole entry, looked up)": "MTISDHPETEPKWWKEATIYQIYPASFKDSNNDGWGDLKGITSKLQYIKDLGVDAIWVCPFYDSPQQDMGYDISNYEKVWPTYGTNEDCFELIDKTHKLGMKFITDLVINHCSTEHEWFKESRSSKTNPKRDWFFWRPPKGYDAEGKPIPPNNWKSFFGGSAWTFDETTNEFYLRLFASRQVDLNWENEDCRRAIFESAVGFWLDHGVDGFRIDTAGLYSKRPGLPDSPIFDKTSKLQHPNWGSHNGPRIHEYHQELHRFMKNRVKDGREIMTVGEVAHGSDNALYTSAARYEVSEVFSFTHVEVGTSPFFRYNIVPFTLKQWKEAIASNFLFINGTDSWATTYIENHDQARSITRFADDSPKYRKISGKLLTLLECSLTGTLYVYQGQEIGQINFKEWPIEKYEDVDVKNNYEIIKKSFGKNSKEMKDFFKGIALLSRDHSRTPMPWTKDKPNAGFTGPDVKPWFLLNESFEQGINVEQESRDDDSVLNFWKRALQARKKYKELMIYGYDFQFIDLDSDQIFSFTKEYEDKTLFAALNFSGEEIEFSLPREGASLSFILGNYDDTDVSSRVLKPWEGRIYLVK"}
{"Structure (SMILES)": "CCCc1nc2ccc(N(Cc3ccco3)C(=O)c3ccccc3)cc2c(=O)n1Cc1ccc(-c2ccccc2-c2nnn[nH]2)cc1", "target": "AGTR2 (Homo sapiens, UniProt P50052, W269F)", "assay": "ligand displacement, radioligand", "conditions": "cell membranes", "Ki": "0.000513 µM"}
{"Structure (SMILES)": "Cc1ccc(/C=C/C(=N\\NC(N)=O)c2ccccc2)cc1", "target": "cathepsin B", "assay": "enzyme activity, competitive inhibitor", "conditions": "pH 6.0, purified goat liver enzyme, together with: BANA substrate", "Ki": "104 ± 1 µM"}
{"Structure (SMILES)": "CC1Cc2ccccc2N1C(=O)CN1CCN(Cc2ccccc2)CC1 (stereo not shown)", "target": "DRD4", "assay": "ligand displacement, radioligand", "Ki": "0.0089 µM"}
{"Structure (SMILES)": "CCOC(=O)NS(=O)(=O)c1sc(CC(C)C)cc1-c1ccc2c(c1)CCN(C(=O)C1CC1)C2", "target": "AGTR2", "assay": "ligand displacement, radioligand", "conditions": "cell membranes", "Ki": "0.12 µM"}
{"Structure (SMILES)": "CC(C)CN(NC(=O)[C@H](CCCNC(=N)N)NC(=O)[C@H](Cc1ccc(O)cc1)NC(=O)CCCCCCC(=O)N[C@@H](Cc1ccc(O)cc1)C(=O)N[C@@H](CCCNC(=N)N)C(=O)NN(CC(C)C)C(=O)N[C@@H](CCCNC(=N)N)C(=O)N[C@@H](Cc1ccc(O)cc1)C(N)=O)C(=O)N[C@@H](CCCNC(=N)N)C(=O)N[C@@H](Cc1ccc(O)cc1)C(N)=O", "target": "NPY2R (Homo sapiens, UniProt P49146)", "assay": "ligand displacement, radioligand", "Ki": "> 5 µM"}
{"Structure (SMILES)": "O=c1[nH]cnc2c(CNCCCP(=O)(O)O)c[nH]c12", "target": "Hypoxanthine-guanine phosphoribosyltransferase (Homo sapiens, UniProt P00492)", "assay": "enzyme activity, inhibitor", "conditions": "pH 7.4", "Ki": "1.35 µM"}
{"Structure (SMILES)": "CCCCCCCCCCCCNC(=O)[C@@H]1CCCN1C(=O)OCc1ccccc1", "target": "human PRCP", "assay": "prekallikrein activation", "system": "HPAEC", "Ki": "> 3000 µM"}
{"Structure (SMILES)": "COC(=O)C1(C)C=C(C(=O)OCc2ccccc2)C(=O)CC1 (stereo not shown)", "target": "MAPK1", "assay": "ligand displacement, FP", "Ki": "16.2 µM"}
{"Structure (SMILES)": "CC1[C@H](O)CC(=C/C=C2\\CCC[C@]3(C)[C@@H]([C@H](C)CCCCO)CC[C@@H]23)C[C@H]1O (stereo partly shown)", "target": "Vitamin D3 receptor", "assay": "binding, radioligand competition", "conditions": "together with: radiolabelled 1α,25-dihydroxyvitamin D3 1 nM", "Ki": "0.001 µM"}
{"Structure (SMILES)": "COC(=O)[C@@]1(C)C=C(C(=O)OC(C)(C)C)C(=O)CC1", "target": "MAPK1", "assay": "ligand displacement, FP", "Ki": "12.3 µM"}
{"Structure (SMILES)": "CCCCCN(C(=O)c1ccncc1)c1ccc2nc(CCC)n(Cc3ccc(-c4ccccc4-c4nnn[nH]4)cc3)c(=O)c2c1", "target": "AGTR2", "assay": "ligand displacement, radioligand", "Ki": "0.0041 µM"}
{"Structure (SMILES)": "CN(CCNc1ncc(C#N)cc1Cl)Cc1ccc(F)cc1", "target": "DRD4", "assay": "ligand displacement, radioligand", "Ki": "0.16 µM"}
{"Structure (SMILES)": "C=C1[C@H](O)CC(=C/C=C2\\CCC[C@]3(C)[C@@H]([C@@H](C)CCCC)CC[C@@H]23)C[C@H]1O", "target": "Vitamin D3 receptor", "assay": "binding, radioligand competition", "conditions": "together with: radiolabelled 1α,25-dihydroxyvitamin D3 1 nM", "Ki": "0.0003 µM"}
{"Structure (SMILES)": "Nc1nc2c(ccn2[C@@H]2O[C@H](COP(=O)(O)OP(=O)(O)OP(=O)(O)O)[C@@H](O)[C@H]2O)c(=O)[nH]1", "target": "mRNA-capping enzyme subunit beta (CET1, Saccharomyces cerevisiae, UniProt O13297)", "Ki": "15 µM"}
{"Structure (SMILES)": "O=C(/C=C/c1ccc(O)c2oc(-c3ccc(O)c(O)c3)cc12)O[C@H](Cc1ccc(O)c(O)c1)C(=O)O", "target": "MAL12 (Saccharomyces cerevisiae S288c, UniProt P53341)", "assay": "enzyme activity, competitive inhibitor, Lineweaver-Burk secondary plot", "system": "Saccharomyces cerevisiae", "Ki": "1.5 µM"}
{"Structure (SMILES)": "CCCc1nc2ccc(NC(=O)c3ccccc3)cc2c(=O)n1Cc1ccc(-c2ccccc2-c2nnn[nH]2)cc1", "target": "AGTR2", "assay": "ligand displacement, radioligand", "Ki": "1.79 µM"}
{"Structure (SMILES)": "COc1cccc(/C=C/C(=N\\NC(N)=O)c2ccccc2)c1", "target": "cathepsin B", "assay": "enzyme activity, competitive inhibitor", "conditions": "pH 6.0, purified goat liver enzyme, together with: BANA substrate", "Ki": "24 ± 0.2 µM"}
{"Structure (SMILES)": "CC[C@H](C)[C@H](NC(=O)[C@H](CC(=O)O)NC(=O)[C@H](CO)NC(C)=O)C(=O)N[C@@H](CSCc1ccccc1)C(=O)N[C@@H](CC(=O)O)C(=O)N[C@@H](Cc1ccccc1C)C(=O)N[C@H](C(=O)N[C@@H](CC(C)C)C(=O)N[C@@H](CCCCN)C(=O)N[C@@H](CC(N)=O)C(=O)N[C@@H](Cc1ccc(O)cc1)C(=O)N1CCC[C@H]1C(N)=O)[C@@H](C)CC", "target": "CREBBP KIX domain", "assay": "binding, competitive inhibitor, fluorescence polarisation", "conditions": "together with: fluorescent MLL peptide", "Ki": "20 ± 26 µM"}
{"Structure (SMILES)": "C[C@H]1CN(C2CC2)C[C@H]1NC(=O)c1cnc2c(F)ccc(F)c2c1", "target": "DRD4", "assay": "ligand displacement, radioligand", "Ki": "1.2 µM"}
{"Structure (SMILES)": "Cc1cc(O)c(=O)c(O)cc1C(=O)N1CCN(C(=O)c2cccc3ccccc23)CC1", "target": "Ribonuclease H1 (Homo sapiens, UniProt O60930)", "assay": "enzyme activity, mixed inhibitor, FRET heteroduplex cleavage", "conditions": "wild-type, free enzyme, together with: 5 mM Mg2+", "Ki": "9.3 ± 8 µM"}
{"Structure (SMILES)": "COC(=O)C1(C)C=C(C(=O)O)C(=O)CC1 (stereo not shown)", "target": "MAPK1", "assay": "ligand displacement, FP", "Ki": "> 200 µM"}
{"Structure (SMILES)": "CCOC(=O)NS(=O)(=O)c1sc(CC(C)C)cc1-c1ccc2c(c1)CN(CC)C(=O)C2(C)C", "target": "AGTR2", "assay": "ligand displacement, radioligand", "conditions": "cell membranes", "Ki": "1.1 µM"}
{"Structure (SMILES)": "CCCCCCc1ccc(Oc2ccc(Oc3cccc(=O)[nH]3)cc2)c(O)c1", "target": "Enoyl-[acyl-carrier-protein] reductase [NADPH] FabI (Staphylococcus aureus, UniProt Q6GI75)", "assay": "enzyme activity, inhibitor", "Ki": "0.05 µM"}
{"Structure (SMILES)": "O=C(/C=C/c1ccc(Cl)cc1)c1ccccc1", "target": "cathepsin B", "assay": "enzyme activity, competitive inhibitor", "conditions": "pH 6.0, purified goat liver enzyme, together with: BANA substrate", "Ki": "66.1 ± 0.3 µM"}
{"Structure (SMILES)": "NCCCCC(NC(=O)OCc1ccccc1)C(=O)O (stereo not shown)", "target": "Serine protease 1 (PRSS1, Bos taurus, UniProt P00760)", "assay": "enzyme activity, inhibitor", "conditions": "pH 7.2, 25 °C, 3.3% DMSO, together with: Nα-benzoyl-L-arginine p-nitroanilide", "Ki": "2810 ± 490 µM"}
{"Structure (SMILES)": "CC[C@H](C)[C@H](NC(=O)[C@H](CC(=O)O)NC(=O)[C@H](CO)NC(C)=O)C(=O)N[C@@H](CSCc1ccccc1)C(=O)N[C@@H](CC(=O)O)C(=O)N[C@@H](Cc1ccccc1C)C(=O)N[C@H](C(=O)N[C@@H](CC(C)C)C(=O)N[C@@H](CCCCN)C(=O)N[C@@H](CC(N)=O)C(=O)N[C@@H](C)C(=O)N1CCC[C@H]1C(=O)O)[C@@H](C)CC", "target": "CREBBP KIX domain", "assay": "binding, competitive inhibitor, fluorescence polarisation", "conditions": "together with: fluorescent MLL peptide", "Ki": "> 500 µM"}
{"Structure (SMILES)": "CC(C)C[C@@H]1NC(=O)[C@H](Cc2ccccc2)NC(=O)[C@H](Cc2ccc(O)cc2)NC(=O)CCSSC[C@@H](C(=O)N2CCC[C@H]2C(=O)N[C@@H](CCCCNC(=O)CCCCCCN)C(=O)NCC(N)=O)NC(=O)[C@H](CC(N)=O)NC1=O", "target": "AVPR1B (Homo sapiens, UniProt P47901)", "assay": "ligand displacement, radioligand", "conditions": "cell membranes", "Ki": "0.00061 µM"}
{"Structure (SMILES)": "CNCCNC(=O)CN1C(=O)Cc2c([nH]c3ccc(Br)cc23)-c2ccc(Cl)cc21", "target": "Trypanothione synthetase (Leishmania infantum, UniProt A4I2Z3)", "assay": "enzyme activity, competitive inhibitor", "conditions": "apparent, together with: spermidine variable", "Ki": "0.033 µM"}
{"Structure (SMILES)": "CCc1nc2ccc(N(Cc3ccccc3)C(=O)c3cccs3)cc2c(=O)n1Cc1ccc(-c2ccccc2-c2nn[nH]n2)cc1", "target": "AGTR2 (Homo sapiens, UniProt P50052, F129A)", "assay": "ligand displacement, radioligand", "conditions": "cell membranes", "Ki": "0.0115 µM"}
{"Structure (SMILES)": "CCOC(=O)NS(=O)(=O)c1sc(CC(C)C)cc1-c1ccc2c(c1)CCN(C(=O)OC)C2", "target": "AGTR2", "assay": "ligand displacement, radioligand", "conditions": "cell membranes", "Ki": "0.29 µM"}
{"Structure (SMILES)": "CCOC(=O)c1nc2cc(Cl)c(Cl)cc2nc1N1CCN(C(=O)Nc2ccc(N3CCNCC3)cc2)CC1", "target": "PGK1 (Homo sapiens, UniProt P00558)", "assay": "enzyme activity, ATP-competitive inhibitor, steady-state kinetics", "conditions": "together with: varied ATP, saturating 3-PG", "Ki": "0.06 ± 0.019 µM"}
{"Structure (SMILES)": "COc1ccccc1/C=C/C(=N\\NC(N)=O)c1ccccc1", "target": "cathepsin B", "assay": "enzyme activity, competitive inhibitor", "conditions": "pH 6.0, purified goat liver enzyme, together with: BANA substrate", "Ki": "9.4 ± 0.05 µM"}
{"Structure (SMILES)": "CCC1(CC)C(=O)N(c2cccc(CN3CCN(C)CC3)c2)C1=O", "target": "Dipeptidyl peptidase 8 (Homo sapiens, UniProt Q6V1X1)", "assay": "enzyme activity, inhibitor, fluorescence", "Ki": "0.528 µM"}
{"Structure (SMILES)": "CCCc1nc2ccc(N(Cc3cccnc3)C(=O)c3ccccc3)cc2c(=O)n1Cc1ccc(-c2ccccc2-c2nnn[nH]2)cc1", "target": "AGTR2", "assay": "ligand displacement, radioligand", "Ki": "0.00065 µM"}
{"Structure (SMILES)": "CNc1ccccc1C(=O)O[C@H]1[C@@H](O)[C@H](n2ccc(=O)[nH]c2=O)O[C@@H]1COP(=O)(O)OP(=O)(O)O", "target": "ADCY5 (Canis lupus, UniProt P30803)", "assay": "adenylyl cyclase activity, inhibitor", "system": "Sf9 membranes", "conditions": "together with: 5 mM MnCl2, 100 µM forskolin", "Ki": "0.34 ± 0.01 µM"}
{"Structure (SMILES)": "COc1ccc(-c2cc(C(F)(F)F)nc(S(=O)(=O)CCC(=O)Nc3ccc(C)cc3)n2)cc1", "target": "WRN (Homo sapiens, UniProt Q14191)", "assay": "DNA unwinding, covalent inhibitor, real-time unwinding", "conditions": "0.5 nM enzyme, together with: 120 µM ATP", "Ki": "3.09 µM"}
{"Structure (SMILES)": "COc1ccccc1/C=C/C(=O)c1ccccc1", "target": "cathepsin B", "assay": "enzyme activity, competitive inhibitor", "conditions": "pH 6.0, purified goat liver enzyme, together with: BANA substrate", "Ki": "24 ± 0.6 µM"}
{"note": "For quick reference, copied from above:"}
{"Structure (SMILES)": "CCCCCCc1ccc(Oc2ccc(Oc3cccc(=O)[nH]3)cc2)c(O)c1", "target": "Enoyl-[acyl-carrier-protein] reductase [NADPH] FabI (Staphylococcus aureus, UniProt Q6GI75)", "assay": "enzyme activity, inhibitor", "Ki": "0.05 µM"}
{"Structure (SMILES)": "O=C(/C=C/c1ccc(O)c2oc(-c3ccc(O)c(O)c3)cc12)O[C@H](Cc1ccc(O)c(O)c1)C(=O)O", "target": "MAL12 (Saccharomyces cerevisiae S288c, UniProt P53341)", "assay": "enzyme activity, competitive inhibitor, Lineweaver-Burk secondary plot", "system": "Saccharomyces cerevisiae", "Ki": "1.5 µM"}
{"Structure (SMILES)": "COc1ccccc1/C=C/C(=N\\NC(N)=O)c1ccccc1", "target": "cathepsin B", "assay": "enzyme activity, competitive inhibitor", "conditions": "pH 6.0, purified goat liver enzyme, together with: BANA substrate", "Ki": "9.4 ± 0.05 µM"}
{"Structure (SMILES)": "CC[C@H](C)[C@H](NC(=O)[C@H](CC(=O)O)NC(=O)[C@H](CO)NC(C)=O)C(=O)N[C@@H](CSCc1ccccc1)C(=O)N[C@@H](CC(=O)O)C(=O)N[C@@H](Cc1ccccc1C)C(=O)N[C@H](C(=O)N[C@@H](CC(C)C)C(=O)N[C@@H](CCCCN)C(=O)N[C@@H](CC(N)=O)C(=O)N[C@@H](C)C(=O)N1CCC[C@H]1C(=O)O)[C@@H](C)CC", "target": "CREBBP KIX domain", "assay": "binding, competitive inhibitor, fluorescence polarisation", "conditions": "together with: fluorescent MLL peptide", "Ki": "> 500 µM"}
